Measurements pooled from the literature.
Lines come from different studies, so protocols differ. Several values in a cell are separate wells, animals, samples, runs or records. Numbers after ± are the reported error.
VCP: Transitional endoplasmic reticulum ATPase (VCP, Homo sapiens, UniProt P55072)
Sequence of UniProt P55072 (whole entry, looked up): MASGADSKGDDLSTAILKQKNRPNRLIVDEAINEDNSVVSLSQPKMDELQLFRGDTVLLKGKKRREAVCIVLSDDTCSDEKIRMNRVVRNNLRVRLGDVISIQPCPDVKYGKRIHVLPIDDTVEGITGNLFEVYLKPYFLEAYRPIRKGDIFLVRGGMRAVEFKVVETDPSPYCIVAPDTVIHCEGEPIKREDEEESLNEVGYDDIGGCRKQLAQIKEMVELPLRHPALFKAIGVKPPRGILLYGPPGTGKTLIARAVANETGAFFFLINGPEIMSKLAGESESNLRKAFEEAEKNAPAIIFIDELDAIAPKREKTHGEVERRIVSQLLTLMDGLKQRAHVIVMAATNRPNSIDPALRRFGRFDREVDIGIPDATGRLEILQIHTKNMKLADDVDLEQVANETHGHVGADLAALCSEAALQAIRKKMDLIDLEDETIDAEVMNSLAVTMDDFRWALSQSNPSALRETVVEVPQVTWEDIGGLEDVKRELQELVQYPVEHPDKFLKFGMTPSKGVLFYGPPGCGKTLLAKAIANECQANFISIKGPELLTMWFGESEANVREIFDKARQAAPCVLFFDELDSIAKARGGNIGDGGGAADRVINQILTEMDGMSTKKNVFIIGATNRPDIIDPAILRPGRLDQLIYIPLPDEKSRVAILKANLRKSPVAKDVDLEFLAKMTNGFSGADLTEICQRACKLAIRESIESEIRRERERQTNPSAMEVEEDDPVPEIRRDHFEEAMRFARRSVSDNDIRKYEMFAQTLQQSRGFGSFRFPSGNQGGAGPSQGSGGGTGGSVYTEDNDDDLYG
17-beta-hydroxysteroid dehydrogenase 13: 17-beta-hydroxysteroid dehydrogenase 13 (Homo sapiens, UniProt Q7Z5P4)
Sequence of UniProt Q7Z5P4 (whole entry, looked up): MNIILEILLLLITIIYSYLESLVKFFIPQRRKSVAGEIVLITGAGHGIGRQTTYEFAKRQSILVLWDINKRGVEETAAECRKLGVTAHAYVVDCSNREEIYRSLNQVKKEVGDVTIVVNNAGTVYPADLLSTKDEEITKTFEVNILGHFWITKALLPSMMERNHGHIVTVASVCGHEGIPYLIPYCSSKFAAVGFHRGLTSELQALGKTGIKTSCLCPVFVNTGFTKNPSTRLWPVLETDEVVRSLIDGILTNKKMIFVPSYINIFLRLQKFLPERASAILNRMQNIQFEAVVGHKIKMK
IRAK4: Interleukin-1 receptor-associated kinase 4 (IRAK4, Homo sapiens, UniProt Q9NWZ3)
Sequence of UniProt Q9NWZ3 (whole entry, looked up): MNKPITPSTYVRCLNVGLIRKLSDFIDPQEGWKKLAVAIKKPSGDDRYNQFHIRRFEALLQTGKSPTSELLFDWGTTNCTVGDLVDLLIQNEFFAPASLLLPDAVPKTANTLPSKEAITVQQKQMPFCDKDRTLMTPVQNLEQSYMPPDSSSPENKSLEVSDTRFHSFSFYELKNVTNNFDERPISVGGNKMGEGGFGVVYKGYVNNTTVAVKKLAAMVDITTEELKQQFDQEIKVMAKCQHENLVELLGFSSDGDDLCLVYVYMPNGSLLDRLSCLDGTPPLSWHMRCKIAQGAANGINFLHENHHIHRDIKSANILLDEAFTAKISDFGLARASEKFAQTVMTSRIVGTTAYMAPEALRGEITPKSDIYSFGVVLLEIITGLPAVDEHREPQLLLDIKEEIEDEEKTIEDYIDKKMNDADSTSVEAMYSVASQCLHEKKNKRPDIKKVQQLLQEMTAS
Sequence of UniProt Q91XE4 (whole entry, looked up): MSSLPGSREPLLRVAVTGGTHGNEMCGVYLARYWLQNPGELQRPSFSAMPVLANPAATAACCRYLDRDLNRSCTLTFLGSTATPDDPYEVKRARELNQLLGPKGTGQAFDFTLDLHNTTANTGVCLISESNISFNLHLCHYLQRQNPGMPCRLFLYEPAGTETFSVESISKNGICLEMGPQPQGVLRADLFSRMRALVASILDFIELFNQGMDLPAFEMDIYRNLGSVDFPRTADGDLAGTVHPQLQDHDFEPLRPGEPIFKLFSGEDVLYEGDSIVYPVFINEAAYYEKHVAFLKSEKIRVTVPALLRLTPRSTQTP
Sequence of UniProt P81947 (whole entry, looked up): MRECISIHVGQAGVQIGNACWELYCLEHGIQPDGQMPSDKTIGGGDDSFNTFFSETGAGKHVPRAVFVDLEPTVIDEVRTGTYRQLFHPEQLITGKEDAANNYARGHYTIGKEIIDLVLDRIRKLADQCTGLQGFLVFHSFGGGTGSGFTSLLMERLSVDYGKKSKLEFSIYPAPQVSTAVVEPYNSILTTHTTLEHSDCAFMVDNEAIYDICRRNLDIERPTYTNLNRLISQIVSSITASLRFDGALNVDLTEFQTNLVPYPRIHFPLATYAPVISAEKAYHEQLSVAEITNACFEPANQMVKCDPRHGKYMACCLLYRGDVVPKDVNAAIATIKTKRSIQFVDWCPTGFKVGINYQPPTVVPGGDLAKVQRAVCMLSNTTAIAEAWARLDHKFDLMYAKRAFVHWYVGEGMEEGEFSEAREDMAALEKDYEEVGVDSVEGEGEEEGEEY
Sequence of UniProt P16591 (whole entry, looked up): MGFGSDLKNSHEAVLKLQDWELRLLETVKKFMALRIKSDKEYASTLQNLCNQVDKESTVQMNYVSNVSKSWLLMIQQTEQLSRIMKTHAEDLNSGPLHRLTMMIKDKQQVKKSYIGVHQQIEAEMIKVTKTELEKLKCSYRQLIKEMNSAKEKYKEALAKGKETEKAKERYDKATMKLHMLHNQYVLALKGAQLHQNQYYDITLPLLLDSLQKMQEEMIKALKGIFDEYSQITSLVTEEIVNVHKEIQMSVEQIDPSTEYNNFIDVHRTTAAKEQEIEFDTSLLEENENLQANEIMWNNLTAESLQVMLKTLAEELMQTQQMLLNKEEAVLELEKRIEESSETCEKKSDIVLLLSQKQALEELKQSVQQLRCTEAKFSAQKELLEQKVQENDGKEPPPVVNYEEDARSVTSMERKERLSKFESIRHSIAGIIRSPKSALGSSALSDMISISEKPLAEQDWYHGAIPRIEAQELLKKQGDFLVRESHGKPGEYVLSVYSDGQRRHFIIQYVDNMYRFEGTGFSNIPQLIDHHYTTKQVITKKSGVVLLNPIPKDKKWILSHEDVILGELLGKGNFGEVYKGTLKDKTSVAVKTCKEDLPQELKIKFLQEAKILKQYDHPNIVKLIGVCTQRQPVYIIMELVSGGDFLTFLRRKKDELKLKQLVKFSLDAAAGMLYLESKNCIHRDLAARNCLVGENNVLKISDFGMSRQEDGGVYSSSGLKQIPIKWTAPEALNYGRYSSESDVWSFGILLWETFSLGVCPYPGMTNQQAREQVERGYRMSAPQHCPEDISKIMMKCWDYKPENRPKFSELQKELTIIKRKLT
Sequence of UniProt P01111 (whole entry, unmodified, looked up): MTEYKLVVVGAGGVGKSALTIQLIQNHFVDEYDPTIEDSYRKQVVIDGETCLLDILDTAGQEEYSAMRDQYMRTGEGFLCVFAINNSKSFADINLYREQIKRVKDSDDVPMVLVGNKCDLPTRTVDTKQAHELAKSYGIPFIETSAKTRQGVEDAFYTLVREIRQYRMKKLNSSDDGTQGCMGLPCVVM
Sequence of UniProt Q9HCG7 (whole entry, looked up): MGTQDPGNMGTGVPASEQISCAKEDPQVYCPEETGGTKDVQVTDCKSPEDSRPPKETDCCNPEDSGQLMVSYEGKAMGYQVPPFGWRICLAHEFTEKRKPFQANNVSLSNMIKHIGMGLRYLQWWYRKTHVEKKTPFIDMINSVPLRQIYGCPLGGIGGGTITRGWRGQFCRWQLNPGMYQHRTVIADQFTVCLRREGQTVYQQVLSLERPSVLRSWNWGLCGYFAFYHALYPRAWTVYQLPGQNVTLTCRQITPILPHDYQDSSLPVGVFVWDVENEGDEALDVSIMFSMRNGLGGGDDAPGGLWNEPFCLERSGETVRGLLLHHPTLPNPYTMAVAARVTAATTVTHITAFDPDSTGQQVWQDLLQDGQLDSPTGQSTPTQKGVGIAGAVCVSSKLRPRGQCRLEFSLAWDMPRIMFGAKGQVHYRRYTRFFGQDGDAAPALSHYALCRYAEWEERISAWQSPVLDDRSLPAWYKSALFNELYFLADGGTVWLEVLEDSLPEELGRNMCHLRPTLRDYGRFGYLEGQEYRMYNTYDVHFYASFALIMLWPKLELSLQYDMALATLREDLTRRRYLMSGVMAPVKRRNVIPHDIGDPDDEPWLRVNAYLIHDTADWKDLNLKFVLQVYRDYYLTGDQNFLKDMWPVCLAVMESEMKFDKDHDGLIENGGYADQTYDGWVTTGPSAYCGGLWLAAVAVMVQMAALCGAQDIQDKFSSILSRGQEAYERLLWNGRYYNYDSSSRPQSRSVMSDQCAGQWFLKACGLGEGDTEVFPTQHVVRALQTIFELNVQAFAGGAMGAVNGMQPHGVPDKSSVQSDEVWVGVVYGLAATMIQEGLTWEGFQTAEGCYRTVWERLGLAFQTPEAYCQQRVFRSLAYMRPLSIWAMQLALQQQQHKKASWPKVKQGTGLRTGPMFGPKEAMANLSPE
Sequence of UniProt Q96BN8 (whole entry, looked up): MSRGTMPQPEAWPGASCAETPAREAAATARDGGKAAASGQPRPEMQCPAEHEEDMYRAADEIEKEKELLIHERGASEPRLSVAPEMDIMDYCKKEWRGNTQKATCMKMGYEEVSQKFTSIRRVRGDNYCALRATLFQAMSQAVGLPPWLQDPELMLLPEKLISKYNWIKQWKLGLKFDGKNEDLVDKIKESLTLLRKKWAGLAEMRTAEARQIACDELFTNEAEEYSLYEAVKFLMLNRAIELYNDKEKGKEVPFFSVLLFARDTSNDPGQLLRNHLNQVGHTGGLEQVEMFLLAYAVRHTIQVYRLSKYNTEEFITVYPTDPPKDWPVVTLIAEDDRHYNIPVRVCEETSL

COc1ccc(CNc2nc(-c3ccc(OC)cc3)nc3ccccc23)cc1
IC50 (VCP; enzyme activity, inhibitor): 13000 ± 4000 nM

Cn1cc2c(C(=O)O)ccc(NS(=O)(=O)c3ccc(Cl)c(Cl)c3)c2n1
IC50 (17-beta-hydroxysteroid dehydrogenase 13; inhibitor, NAD(P)H-Glo; with: β-estradiol): 85 nM

Clc1ccc(-c2nc(NCc3ccccc3)c3ccccc3n2)c(Cl)c1
IC50 (VCP; enzyme activity, inhibitor): > 30000 nM

CS(=O)(=NC#N)c1ccccc1Nc1nc(Nc2ccnc(CO)c2)ncc1Cl (centres unmarked)
IC50 (IRAK4; cell-based): 53.2 ± 2.79 nM

C=CC(=O)N1CCN(c2nc(=O)n(-c3c(C)ccnc3C(C)C)c3nc(-c4c(O)cccc4F)c(F)cc23)[C@@H](C)C1
IC50 (GTPase NRas (NRAS, Homo sapiens, UniProt P01111, C181S/C186S/G12C)): 57 nM

Cn1cc2c(C(=O)O)ccc(NS(=O)(=O)c3ccc(OCC4CCC4)c(Cl)c3)c2n1
IC50 (17-beta-hydroxysteroid dehydrogenase 13; inhibitor, NAD(P)H-Glo; with: β-estradiol): 10 nM

CCCCCN1C[C@H](O)[C@@H](O)[C@H](O)[C@@H]1CO
IC50 (Beta-glucosidase (GBA2, Homo sapiens, UniProt Q9HCG7); enzyme activity, inhibitor; cell lysate; with: 4-MU-β-D-glucopyranoside): 10 nM

COc1cc(C(=O)c2c[nH]c3cc(-c4ccc(C(F)(F)F)cc4)ccc23)cc(OC)c1OC
IC50 (Tubulin alpha-1B chain/TUBB2B (Bos taurus, UniProt P81947+Q6B856); tubulin polymerization, inhibitor, turbidimetric; with: 10 µM bovine tubulin): > 20000 nM

CCS(=O)(=O)N1CC(CC#N)(n2cc(-c3ncnc4[nH]ccc34)cn2)C1
IC50 (ATP-dependent translocase ABCB1 (ABCB1, Homo sapiens, UniProt P08183); transport, inhibitor; inside-out membrane vesicles; with: [3H]vinblastine substrate): no inhibition

CC[C@@H]1[C@H](F)C(=O)N[C@@H]1COc1nccc2cc(C(N)=O)c(OC)cc12
IC50 (Tyrosine-protein kinase Fer (FER, Homo sapiens, UniProt P16591); ATP probe binding, KiNativ profiling, measured: Lys1 probe site; THP-1 cell lysate): > 5000 nM

Brc1ccc(Nc2nc(NCc3ccccc3)c3ccccc3n2)cc1
IC50 (VCP; enzyme activity, inhibitor): 1800 ± 400 nM

Cc1c(C)c2c(c(C)c1O)CCC(C)(COc1ccc(CC3SC(=O)NC3=O)cc1)O2 (centres unmarked)
IC50 (Gq heterotrimer (Gαq Gβ1γ2); 20 min, pH 7.4, M1 receptor membranes, with: carbachol 50 µM): ~31700 nM

N#CSc1cc(SC#N)c(N)nc1N
IC50 (Ubiquitin thioesterase otulin (OTULIN, Homo sapiens, UniProt Q96BN8); deubiquitinase activity, inhibitor, MALDI-TOF DUB; 30 °C, 35 min pre-incubation): 4610 nM

FC(F)(F)c1ccc2c(NCc3ccccc3)nc(NCc3ccccc3)nc2c1
IC50 (VCP; enzyme activity, inhibitor): 9100 ± 2000 nM

O=c1c2ccccc2[se]n1-c1ccccc1
IC50 (N-acyl-aromatic-L-amino acid amidohydrolase (carboxylate-forming) (Acy3, Mus musculus, UniProt Q91XE4); with: NA-Tyr substrate): 1 nM and ~1 nM

CN(Cc1ccccc1)c1nc(-c2ccc([N+](=O)[O-])cc2)nc2ccccc12
IC50 (VCP; enzyme activity, inhibitor): 8400 ± 4000 nM

C#Cc1cnc(Nc2ccnc(CO)c2)nc1Nc1ccccc1S(C)(=O)=NC#N (centres unmarked)
IC50 (IRAK4; cell-based): 26.8 ± 0.98 nM

For quick reference, copied from above:
CCCCCN1C[C@H](O)[C@@H](O)[C@H](O)[C@@H]1CO
IC50 (Beta-glucosidase (GBA2, Homo sapiens, UniProt Q9HCG7); enzyme activity, inhibitor; cell lysate; with: 4-MU-β-D-glucopyranoside): 10 nM
